Measured values collected from several papers.
Numbers after ± are the reported error.

Structure (SMILES)	assay	test system	conditions	scale	quantity	result
CN(C)c1ccc(-c2oc3ccccc3c(=O)c2OCc2ccccc2)cc1		diabetic rat	5 mg/kg, day 14, p-nitrophenyl β-glucoside induced		blood glucose	208 ± 4.88 mg/dL
CC(C)(CCCC/C=C/CCCCCC(C)(C)C(=O)O)C(=O)O		ApoE-/- mouse, Western diet	oral, dose not given, 24 weeks, once daily	baseline: vehicle	hepatic cholesterol reduction	50%
CCOP(=O)(CC(=O)Nc1ccc(S(=O)(=O)N(CC(N)=O)c2ccc(N(CC(N)=O)S(=O)(=O)c3ccc(OC)cc3)c3ccccc23)cc1)OCC	Western blot	APP/PS1 mice, hippocampus and frontal cortex	40 mg/kg		total Nrf2 protein level	increased
COc1ccc(C2CC(c3ccc(C)cc3)=Nc3ccccc3S2)cc1OC (stereo not drawn)		Wistar rat, STZ-induced diabetes, serum	10 mg/kg, 28 days		alkaline phosphatase	206 IU/L
CC[C@@H](C)N([11CH3])C(=O)c1nc(-c2ccccc2Cl)c2ccccc2n1	PET from VT	rhesus monkey, cerebellum	dose not given		TSPO specific binding	82%
O=c1c(OCc2ccccc2)c(-c2cccc([N+](=O)[O-])c2)oc2ccccc12		diabetic rat	7.5 mg/kg, day 1, p-nitrophenyl β-glucoside induced		blood glucose	401 ± 4.89 mg/dL
CC[C@H]1[C@@H](O)[C@@H]2[C@H](CC[C@]3(C)[C@@H]([C@H](C)CCOS(=O)(=O)[O-])CC[C@@H]23)[C@@]2(C)CC[C@@H](O)C[C@@H]12.[Na+]	EchoMRI	ob/ob NASH mouse model	oral, 10 mg/kg once daily, before treatment, baseline of 8 week study		whole-body lean mass	14.4 ± 0.4 g
Cc1cc2nc(-c3ccco3)[nH]c2cc1C	ABTS scavenging, absorbance				IC50	1.52 µM
O=C1c2c(O)cc(O)c(-c3ccc(O)c(O)c3)c2OC1Cc1ccc(O)c(O)c1 (stereo not drawn)	DPPH scavenging, absorbance				EC50	60 µM

Excerpt of the above:
Structure (SMILES)	assay	test system	conditions	scale	quantity	result
CC[C@H]1[C@@H](O)[C@@H]2[C@H](CC[C@]3(C)[C@@H]([C@H](C)CCOS(=O)(=O)[O-])CC[C@@H]23)[C@@]2(C)CC[C@@H](O)C[C@@H]12.[Na+]	EchoMRI	ob/ob NASH mouse model	oral, 10 mg/kg once daily, before treatment, baseline of 8 week study		whole-body lean mass	14.4 ± 0.4 g
